Results from different studies.
± marks the error that the study gave. Values after ≈ are worked out from the molar mass of the structure shown.
Sequence of UniProt P41146 (whole entry, unmodified, looked up): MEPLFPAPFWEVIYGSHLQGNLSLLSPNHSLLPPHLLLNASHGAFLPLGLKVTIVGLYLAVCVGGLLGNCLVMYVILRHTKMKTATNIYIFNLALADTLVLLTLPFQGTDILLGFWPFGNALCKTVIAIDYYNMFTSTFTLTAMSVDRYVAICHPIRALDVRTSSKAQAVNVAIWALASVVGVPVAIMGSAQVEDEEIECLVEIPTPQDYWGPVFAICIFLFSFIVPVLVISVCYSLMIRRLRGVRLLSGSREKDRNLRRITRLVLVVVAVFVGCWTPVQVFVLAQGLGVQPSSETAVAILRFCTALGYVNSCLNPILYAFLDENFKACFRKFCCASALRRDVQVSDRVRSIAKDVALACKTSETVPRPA
Sequence of UniProt P54756 (whole entry, looked up): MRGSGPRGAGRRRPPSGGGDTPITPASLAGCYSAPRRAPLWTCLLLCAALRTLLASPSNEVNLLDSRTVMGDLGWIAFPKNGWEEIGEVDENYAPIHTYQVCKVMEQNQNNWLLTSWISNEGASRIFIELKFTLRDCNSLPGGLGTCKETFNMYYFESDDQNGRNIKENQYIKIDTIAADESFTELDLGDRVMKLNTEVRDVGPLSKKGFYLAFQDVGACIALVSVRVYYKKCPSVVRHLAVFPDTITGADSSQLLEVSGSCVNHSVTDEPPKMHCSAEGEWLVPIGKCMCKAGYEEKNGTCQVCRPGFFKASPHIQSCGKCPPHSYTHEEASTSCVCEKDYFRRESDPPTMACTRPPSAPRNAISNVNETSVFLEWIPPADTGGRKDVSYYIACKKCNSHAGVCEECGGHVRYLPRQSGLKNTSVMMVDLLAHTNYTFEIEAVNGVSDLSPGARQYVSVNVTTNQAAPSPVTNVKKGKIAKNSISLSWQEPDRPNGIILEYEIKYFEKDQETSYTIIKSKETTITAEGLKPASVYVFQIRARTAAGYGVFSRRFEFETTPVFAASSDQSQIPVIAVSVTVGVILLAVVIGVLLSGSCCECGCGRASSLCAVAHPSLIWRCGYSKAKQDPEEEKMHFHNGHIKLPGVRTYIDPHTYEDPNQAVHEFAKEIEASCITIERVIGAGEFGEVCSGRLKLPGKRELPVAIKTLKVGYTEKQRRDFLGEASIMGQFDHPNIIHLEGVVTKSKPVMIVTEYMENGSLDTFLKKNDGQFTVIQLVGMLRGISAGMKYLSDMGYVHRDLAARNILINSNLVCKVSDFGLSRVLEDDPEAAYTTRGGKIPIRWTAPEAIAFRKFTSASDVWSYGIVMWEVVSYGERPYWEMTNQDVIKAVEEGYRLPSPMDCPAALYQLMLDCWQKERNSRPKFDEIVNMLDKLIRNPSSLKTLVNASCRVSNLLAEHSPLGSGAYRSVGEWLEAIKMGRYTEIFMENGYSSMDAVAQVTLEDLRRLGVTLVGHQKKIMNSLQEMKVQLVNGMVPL

SMILES	target or system	test	system	setting	how to read	endpoint	value
CCCCCCCCCCn1cc[n+](CCCCCCOc2cc(OCCCCCC[n+]3ccn(CCCCCCCCCC)c3)cc(OCCCCCC[n+]3ccn(CCCCCCCCCC)c3)c2)c1.[Br-].[Br-].[Br-]	Enterococcus faecalis	–	OG1RF	–	–	MIC	4 µM
Cc1cccc(Nc2n[nH]c3nc(-c4ccc(F)cc4F)nc(N)c23)c1	rhinovirus A2	viral cytopathic effect	HeLa	–	–	IC50	11.9 µM
CNS(=O)(=O)Nc1nccc(Cc2c(C)c3ccc(Oc4ncccc4F)cc3oc2=O)c1F	KMS-11	cell viability	–	7 days	–	IC50	> 1 µM
CCCCCCCCn1cc[n+](CCCCCCCCOc2cc(OCCCCCCCC[n+]3ccn(CCCCCCCC)c3)cc(OCCCCCCCC[n+]3ccn(CCCCCCCC)c3)c2)c1.[Br-].[Br-].[Br-]	Enterococcus faecalis	–	OG1RF	–	–	MIC	2 µM
Cc1ccc(Nc2n[nH]c3nc(-c4ccccc4)nc(N)c23)cc1	rhinovirus A2	viral cytopathic effect	HeLa	–	–	IC50	5.66 µM
CN1CCCNC(=O)c2cccc(c2)C(=O)NCCCN(C)CCCNc2cccc3c2C(=O)c2cccc(c2C3=O)NCCC1	SAS	RNA-Seq, measured: ARV1 mRNA	–	1 µM, 6 h	reference: untreated cells	log2 fold change	-0.83
COC1CN([C@H]2CC[C@H]([C@@]3(C)Oc4c(Cl)cc(C(=O)NCc5c(SC)cc(C)[nH]c5=O)c(C)c4O3)CC2)C1	–	RNA-seq, measured: RUNDC3A mouse homolog	mouse, HT-1376 xenograft, whole blood	dose not given	reference: vehicle	log2 fold change	3.32
COc1ccccc1-c1n[nH]c2nc(N[C@H]3CC[C@H](NS(=O)(=O)CC(C)C)CC3)ncc12	Leishmania donovani	parasite growth	–	amastigote	–	EC50	0.0052 µM
C[C@@H]1C(=O)O[C@@H](C)/C=C/C=C\[C@@H](C)[C@@H]2C=C[C@@H]3C[C@@]4(C)O[C@H]4[C@@H](C)[C@H]3[C@@H]2C(=O)C(Cl)(Cl)C1=O	Staphylococcus aureus	–	MRSA clinical isolate	resistant, OXA, CIP, MXF, ERY, CLI, RIF	–	MIC	0.025 µg/mL
O=c1c(-c2nc3ccccc3s2)cc2c(n1NS(=O)(=O)c1ccc(Cl)cc1)CCCCCC2	coxsackievirus B4	viral replication, plaque	BGM	non-toxic dose, mean of three titres	–	plaque reduction	66.7%
CC(=O)O[C@@H]1[C@@H](OC(C)=O)[C@H](Sc2sc(C(=O)c3ccc(Cl)cc3)c(N)c2-c2nc3ccccc3s2)OC[C@H]1OC(C)=O	human adenovirus 7	plaque reduction	–	non-toxic dose NG, mean over three titres	–	viral reduction	0%
Nc1nc(-c2ccc(C(F)(F)F)cc2)nc2[nH]nc(Nc3ccc(F)cc3)c12	rhinovirus A2	viral cytopathic effect	HeLa	–	–	IC50	0.77 µM
C=CC(=O)Nc1cccc(Cn2ncc3cnc(Nc4cnn(CCOC)c4)nc32)c1	DDR1 human	binding, KINOMEscan	–	100 nM	lower = stronger binding	percent of control	100%
Cc1ccc(C(=O)c2sc(S)c(-c3nc4ccccc4s3)c2N)cc1	coxsackievirus B4	plaque reduction	–	non-toxic dose NG, mean over three titres	–	viral reduction	26.7%
FC(F)(F)c1cccc(CNc2nc(NC3CCN(Cc4ccccc4)CC3)c3nc[nH]c3n2)c1	Cryptococcus neoformans	RNA-seq, measured: ASP1 (CNAG_02161)	wild type	48 µg/mL, 3 h	reference: untreated wild type	log2 fold change	-0.404
CC(=O)OC[C@H]1O[C@@H](Sc2sc(C(=O)c3ccc(C)cc3)c(N)c2-c2nc3ccccc3s2)[C@H](OC(C)=O)[C@@H](OC(C)=O)[C@@H]1OC(C)=O	coxsackievirus B4	plaque reduction	–	non-toxic concentration	–	viral titre reduction	30%
CNCc1ccc2c(c1)C[C@H](CNC(=N)N)[C@H]2NC(=O)C(=O)Nc1ccc(Cl)c(F)c1	Human immunodeficiency virus 1	viral infection, pseudovirus neutralization	TZM-bl, 191084 B7-19	clade A transmitted/founder	–	IC80	36.2 µM
Cc1cccc2c1N(C(=O)n1ccnn1)CC2	Arabidopsis thaliana	–	atd14-1 mutant, seedlings	5 µM, with: (±)-GR24 1 µM	–	hypocotyl length	7.63 mm
Cc1ccc(-c2nc(N)c3c(Nc4ccc(F)cc4)n[nH]c3n2)cc1	rhinovirus A2	viral cytopathic effect	HeLa	–	–	IC50	0.78 µM
Cc1ccc2c(c1)C(O)(CC(=O)c1ccc3c(c1)OCO3)C(=O)N2 (stereo not drawn)	Uncharacterized protein (Trypanosoma brucei brucei, UniProt Q386Q8)	inhibitor, coupled colorimetric	Trypanosoma brucei	–	–	IC50	224 µM
CCOC(=O)c1cc(-c2nc3ccccc3s2)c(=O)n(NS(=O)(=O)c2ccc(Cl)cc2)c1N	human adenovirus 7	viral replication, plaque	HEp-2	non-toxic dose, mean of three titres	–	plaque reduction	0%

SMILES	target or system	test	system	setting	how to read	endpoint	value
CCCCCCCCCC(=O)N[C@@H](Cc1c[nH]c2ccccc12)C(=O)N[C@H](CC(N)=O)C(=O)N[C@@H](CC(=O)O)C(=O)N[C@@H]1C(=O)NCC(=O)N[C@@H](CCCNC(=O)OC2/C=C/CCCCC2)C(=O)N[C@@H](CC(=O)O)C(=O)N[C@H](C)C(=O)N[C@@H](CC(=O)O)C(=O)NCC(=O)N[C@H](CO)C(=O)N[C@@H]([C@H](C)CC(=O)O)C(=O)N[C@@H](CC(=O)c2ccccc2N)C(=O)O[C@@H]1C (stereo partly drawn)	Staphylococcus aureus	planktonic bacterial growth, isothermal microcalorimetry	MRSA	2.0 µg/mL, 24 h, 37 °C, with: TAG hydrogel	–	peak heat flow time	0 h
C/C=C(/C)C(=O)O[C@@H]1C=C(C)CC[C@]2(O)[C@@H](C(C)C)CC(=O)[C@]12C	Helicobacter pylori	microbial growth, broth dilution	–	0.98 µg/mL	–	inhibition	0%
CC(=O)OC[C@H]1O[C@@H](Sc2sc(C(=O)c3ccc(Cl)cc3)c(N)c2-c2nc3ccccc3s2)[C@H](OC(C)=O)[C@@H](OC(C)=O)[C@H]1OC(C)=O	coxsackievirus B4	plaque reduction	–	non-toxic concentration	–	viral titre reduction	20%
Nc1ncc(-c2cc(-c3cnn(CC(F)(F)F)c3)ncc2F)nc1C(=O)NC1CNCC(F)C1 (stereo not drawn)	NDR1	KINOMEscan	–	1 µM	reference: DMSO control	remaining binding	71%
CC(=O)O[C@@H]1[C@@H](OC(C)=O)[C@H](Sc2sc(C(=O)c3ccc(C)cc3)c(N)c2-c2nc3ccccc3s2)OC[C@H]1OC(C)=O	human adenovirus 7	plaque reduction	–	non-toxic dose NG, mean over three titres	–	viral reduction	20%
O=C(CCCc1cn(C[C@H]2O[C@@H]3O[C@H]4[C@H](O)[C@@H](O)[C@@H](O[C@H]5[C@H](O)[C@@H](O)[C@@H](O[C@H]6[C@H](O)[C@@H](O)[C@@H](O[C@H]7[C@H](O)[C@@H](O)[C@@H](O[C@H]8[C@H](O)[C@@H](O)[C@@H](O[C@H]2[C@H](O)[C@H]3O)O[C@@H]8Cn2cc(CCCC(=O)N[C@H]3CCOC3=O)nn2)O[C@@H]7Cn2cc(CCCC(=O)N[C@H]3CCOC3=O)nn2)O[C@@H]6Cn2cc(CCCC(=O)N[C@H]3CCOC3=O)nn2)O[C@@H]5Cn2cc(CCCC(=O)N[C@H]3CCOC3=O)nn2)O[C@@H]4Cn2cc(CCCC(=O)N[C@H]3CCOC3=O)nn2)nn1)N[C@H]1CCOC1=O	Escherichia coli	LuxR reporter, antagonist	DH5α sensor strain	1 µM, with: OHHL 200 nM	–	inhibition	2 ± 1%
CC1C=CC=CC(C)C2C=CC3CC(C)(O)C(Cl)C(C)C3C2C(=O)C(Cl)(Cl)C(=O)C(C)C(=O)O1 (stereo not drawn)	Staphylococcus aureus	–	MRSA clinical isolate	Resistant, OXA, GEN, ERY, CLI, SXT	–	MIC	0.1 µg/mL
Cc1ccc(S(=O)(=O)Nn2c3c(cc(-c4nc5ccccc5s4)c2=O)CCCC3)cc1	human adenovirus 7	viral replication, plaque	HEp-2	non-toxic dose, mean of three titres	–	plaque reduction	30%
CC(C)[C@@H]1NC(=O)[C@@H](CCCNC(=N)N)NC(=O)[C@H]([C@@H](C)O)NC(=O)[C@@H](CCCN)NC(=O)[C@H](Cc2ccccc2)NC(=O)[C@@H](Cc2ccc(F)c(F)c2)NC1=O	Balamuthia mandrillaris	parasite growth, ATP luminescence	–	–	–	IC90	> 20 µM
CC(=O)OC[C@H]1O[C@@H](Sc2sc(C(=O)c3ccc(Br)cc3)c(N)c2-c2nc3ccccc3s2)[C@H](OC(C)=O)[C@@H](OC(C)=O)[C@@H]1OC(C)=O	human adenovirus 7	plaque reduction	–	non-toxic dose NG, mean over three titres	–	viral reduction	30%
CC=C(C)C(=O)OC1CC2C(C=C(C)C3C(OC(C)=O)CC(=O)C13C)OC(=O)C2C (stereo not drawn)	Helicobacter pylori	microbial growth, broth dilution	–	3.9 µg/mL	–	inhibition	0%
CC(=O)O[C@@H]1[C@@H](OC(C)=O)[C@H](Sc2sc(C(=O)c3ccc(Br)cc3)c(N)c2-c2nc3ccccc3s2)OC[C@H]1OC(C)=O	human adenovirus 7	plaque reduction	–	non-toxic dose NG, mean over three titres	–	viral reduction	36.7%
O=C(NCCCN1CCC2(CC1)OCc1ccccc12)C1CCCN1Cc1ccccc1 (stereo not drawn)	Nociceptin receptor (OPRL1, Homo sapiens, UniProt P41146, D130A)	–	–	–	–	Ki	> 10 µM
Cc1cc(C(=O)Nc2nc3cccc(C)c3n2[C@H]2CCCCN(C(=O)/C=C/CN(C)C)C2)ccn1	Trypanosoma brucei rhodesiense	growth inhibition, CellTiter-Glo	STIB900	48 h, mean value	–	EC50	0.033 µM
COC1C=COC2(C)Oc3c(C)c(O)c4c(c3C2=O)C2=NC3(CCN(CC(C)C)CC3)NC2=C(NC(=O)C(C)=CC=CC(C)C(O)C(C)C(O)C(C)C(OC(=O)c2cccnc2)C1C)C4=O (stereo not drawn)	Mycobacteroides abscessus	intracellular growth, Hill fit	THP-1 derived macrophages, ATCC 19977	–	–	IC90	0.35 µM
Cc1nn(-c2cccc(N)c2)c(=O)c2cnc(Nc3ccc(N4CCNCC4)cc3)nc12	Ephrin type-A receptor 5 (EPHA5, Homo sapiens, UniProt P54756)	enzyme activity, inhibitor	–	–	–	IC50	> 10 µM
CO[C@@H]1OC[C@@H](O)[C@H](O)[C@H]1O	Helicobacter pylori	microbial growth, broth dilution	–	0.24 µg/mL	–	inhibition	0%
C=C(NC(=O)c1csc(-c2nc3c(cc2O)-c2nc(cs2)C(=O)NC(C(C)O)C(=O)NC(=C(C)OC)c2nc(cs2)C(=O)NC2c4nc(cs4)C(=O)NC(COC(=O)c4c5c6c(cccc6n4O)COC(=O)C(OC4CC(C)(O)C(N(C)C)C(C)O4)C2OC5)c2nc-3cs2)n1)C(N)=O (stereo not drawn)	Streptococcus pneumoniae	–	penicillin-resistant, 10 isolates	serum 25%	–	MIC50	0.0078 µg/mL (≈ 5.43 nM)
CC1(F)CN(C(=O)Cn2c(=O)c(C(=O)NCc3ccc(Cl)cc3)cc3nc(N4CCN(CCN)C4=O)cnc32)C1	Epstein-Barr virus	viral replication, qPCR	–	retest 2	–	EC50	0.06 µM
CC(C)(C)NCC(SS(=O)(=O)O)c1ccccc1 (stereo not drawn)	Schistosoma mansoni	perfusion day 52	infected Swiss Webster mice	400 mg/kg single dose, 1248 h, dosed day 7 post-infection	–	spleen weight	0.81 g
Cc1ncsc1-c1ccc(C(C)NC(=O)C2CC(O)CN2C(=O)C(NC(=O)CCCCCCCCCCN2CCCC(Nc3ncc(Cl)c(Nc4ccccc4S(=O)(=O)C(C)C)n3)C2)C(C)(C)C)cc1 (stereo not drawn)	22Rv1	RNA-seq, measured: TPSG1 mRNA	–	concentration not given	reference: DMSO	log2 fold change	-5.49

Some of these lines once more:
SMILES	target or system	test	system	setting	how to read	endpoint	value
CC(=O)O[C@@H]1[C@@H](OC(C)=O)[C@H](Sc2sc(C(=O)c3ccc(C)cc3)c(N)c2-c2nc3ccccc3s2)OC[C@H]1OC(C)=O	human adenovirus 7	plaque reduction	–	non-toxic dose NG, mean over three titres	–	viral reduction	20%
O=C(CCCc1cn(C[C@H]2O[C@@H]3O[C@H]4[C@H](O)[C@@H](O)[C@@H](O[C@H]5[C@H](O)[C@@H](O)[C@@H](O[C@H]6[C@H](O)[C@@H](O)[C@@H](O[C@H]7[C@H](O)[C@@H](O)[C@@H](O[C@H]8[C@H](O)[C@@H](O)[C@@H](O[C@H]2[C@H](O)[C@H]3O)O[C@@H]8Cn2cc(CCCC(=O)N[C@H]3CCOC3=O)nn2)O[C@@H]7Cn2cc(CCCC(=O)N[C@H]3CCOC3=O)nn2)O[C@@H]6Cn2cc(CCCC(=O)N[C@H]3CCOC3=O)nn2)O[C@@H]5Cn2cc(CCCC(=O)N[C@H]3CCOC3=O)nn2)O[C@@H]4Cn2cc(CCCC(=O)N[C@H]3CCOC3=O)nn2)nn1)N[C@H]1CCOC1=O	Escherichia coli	LuxR reporter, antagonist	DH5α sensor strain	1 µM, with: OHHL 200 nM	–	inhibition	2 ± 1%
CC1C=CC=CC(C)C2C=CC3CC(C)(O)C(Cl)C(C)C3C2C(=O)C(Cl)(Cl)C(=O)C(C)C(=O)O1 (stereo not drawn)	Staphylococcus aureus	–	MRSA clinical isolate	Resistant, OXA, GEN, ERY, CLI, SXT	–	MIC	0.1 µg/mL
